Assay results of several laboratories.
Each numbered part is a random draw from the data of one study; scales do not carry over between parts.

Sample 1 — technique: universal PBM; form: double-stranded DNA, one strand shown; matrix: in vitro; concentration: 600 nM; direction: higher = stronger binding; quantity: E-score
Target: Sal-like protein 4, full length isoform A (SALL4, Homo sapiens, UniProt Q9UJQ4, residues 1-1053)
UniProt Q9UJQ4, sequence (whole entry, looked up): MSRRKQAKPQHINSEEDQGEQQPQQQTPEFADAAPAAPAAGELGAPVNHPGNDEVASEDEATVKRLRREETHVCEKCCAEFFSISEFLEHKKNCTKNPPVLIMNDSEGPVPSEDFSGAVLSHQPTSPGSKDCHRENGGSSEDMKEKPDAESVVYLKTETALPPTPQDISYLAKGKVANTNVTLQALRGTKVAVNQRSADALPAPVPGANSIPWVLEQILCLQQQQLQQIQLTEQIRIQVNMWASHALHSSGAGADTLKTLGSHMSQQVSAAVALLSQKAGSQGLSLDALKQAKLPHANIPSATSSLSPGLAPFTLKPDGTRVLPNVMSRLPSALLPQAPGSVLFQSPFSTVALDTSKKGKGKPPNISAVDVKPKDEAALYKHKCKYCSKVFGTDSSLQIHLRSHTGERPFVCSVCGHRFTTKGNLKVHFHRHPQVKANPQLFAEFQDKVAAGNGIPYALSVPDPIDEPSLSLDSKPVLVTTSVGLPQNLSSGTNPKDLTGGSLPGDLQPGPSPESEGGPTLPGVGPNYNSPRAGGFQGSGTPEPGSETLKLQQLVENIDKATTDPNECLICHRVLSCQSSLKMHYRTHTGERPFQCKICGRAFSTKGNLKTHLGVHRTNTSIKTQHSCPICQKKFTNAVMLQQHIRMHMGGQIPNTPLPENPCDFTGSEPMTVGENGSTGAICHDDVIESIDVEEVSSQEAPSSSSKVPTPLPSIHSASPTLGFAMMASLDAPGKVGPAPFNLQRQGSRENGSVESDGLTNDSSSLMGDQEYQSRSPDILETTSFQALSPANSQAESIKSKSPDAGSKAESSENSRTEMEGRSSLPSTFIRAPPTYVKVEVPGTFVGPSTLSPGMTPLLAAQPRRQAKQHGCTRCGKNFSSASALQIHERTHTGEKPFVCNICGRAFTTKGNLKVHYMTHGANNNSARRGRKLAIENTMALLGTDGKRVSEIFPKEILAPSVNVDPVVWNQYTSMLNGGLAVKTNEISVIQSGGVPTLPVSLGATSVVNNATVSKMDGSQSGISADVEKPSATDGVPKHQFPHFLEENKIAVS
Notes: 8-mer, flanks averaged, mean of replicates
ATCGCTTG: -0.0339
CTCTAATA: 0.318
CTACGCTC: -0.0906
AATTTCGA: 0.157

Sample 2 — technique: protein binding microarray; form: double-stranded DNA, one strand shown; matrix: in vitro; concentration: not given; reference: not given; direction: higher = stronger binding; quantity: E-score
Target: Histone acetyltransferase KAT6A, winged helix 2, GST fusion (KAT6A, Homo sapiens, UniProt Q92794, residues 85-181)
Notes: 8-mer, flanks averaged, mean of 2 arrays, mostly near background
Construct (chain): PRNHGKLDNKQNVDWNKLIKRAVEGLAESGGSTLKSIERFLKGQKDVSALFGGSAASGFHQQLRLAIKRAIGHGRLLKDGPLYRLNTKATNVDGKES
GAATCTCC: 0.077
CGTTCCTA: -0.0194
ACGGATCT: 0.0117

Sample 3 — technique: protein-binding microarray; form: double-stranded DNA, one strand shown; matrix: in vitro; concentration: 250 nM; notes: 60-bp whole probe; added: salmon DNA 0.4 mg/ml; reference: random background probes; direction: higher = stronger binding; quantity: log fluorescence
Target: Interferon regulatory factor 7, full length, phosphomimetic (IRF7, Homo sapiens, UniProt Q92985, residues 1-503, S101K/S471D/S472D/S475D/S476D/S477D/S483D/S484D/S487D)
UniProt Q92985, sequence (whole entry, unmodified, looked up): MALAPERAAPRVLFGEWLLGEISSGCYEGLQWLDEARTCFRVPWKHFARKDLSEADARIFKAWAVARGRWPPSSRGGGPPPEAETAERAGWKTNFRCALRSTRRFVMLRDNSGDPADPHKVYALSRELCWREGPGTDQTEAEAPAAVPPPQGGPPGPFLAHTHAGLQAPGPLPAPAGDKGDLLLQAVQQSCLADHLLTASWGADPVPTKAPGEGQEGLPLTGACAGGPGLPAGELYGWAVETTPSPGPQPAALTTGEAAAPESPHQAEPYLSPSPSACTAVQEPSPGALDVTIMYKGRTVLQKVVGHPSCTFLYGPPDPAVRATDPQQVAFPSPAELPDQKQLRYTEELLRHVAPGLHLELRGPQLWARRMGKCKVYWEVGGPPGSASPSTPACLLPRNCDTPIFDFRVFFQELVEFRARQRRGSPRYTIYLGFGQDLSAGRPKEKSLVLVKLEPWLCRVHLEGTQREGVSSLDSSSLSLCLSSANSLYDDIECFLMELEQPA
GCCTAGCACCACTGCATCTGATTTCTCAAAGTGCTAGTCTTGATTCGCTTGACGCTGCTG: 0.104 z-score
GCCTAGCACTTAGGTATCCTCCTGCTTTAGTGCTAGGTCTTGATTCGCTTGACGCTGCTG: 0.00513 z-score
GCCTAGCACGCGCTTCTCGAGTGCCGGCTGGTGCTAGTCTTGATTCGCTTGACGCTGCTG: 0.312 z-score

Other studies, line by line
PhoQ, residues 284 288 289 292 302 303 GANMMA — fold induction (PhoP, residues 12 14 15 18 19 NMSSL (Escherichia coli, UniProt P23836); Sort-seq, measured: YFP reporter; E. coli; PhoQ-PhoP variant library, added: 10 µM Mg2+; reference: high Mg2+ state, higher = stronger signaling): 20.5

Repeated from above (sample 2):
ACGGATCT: 0.0117
